Assay results of several laboratories.
Each line is one published result; not all experiments were run side by side. ± gives the spread as reported.
Sequence of UniProt Q12769 (whole entry, looked up): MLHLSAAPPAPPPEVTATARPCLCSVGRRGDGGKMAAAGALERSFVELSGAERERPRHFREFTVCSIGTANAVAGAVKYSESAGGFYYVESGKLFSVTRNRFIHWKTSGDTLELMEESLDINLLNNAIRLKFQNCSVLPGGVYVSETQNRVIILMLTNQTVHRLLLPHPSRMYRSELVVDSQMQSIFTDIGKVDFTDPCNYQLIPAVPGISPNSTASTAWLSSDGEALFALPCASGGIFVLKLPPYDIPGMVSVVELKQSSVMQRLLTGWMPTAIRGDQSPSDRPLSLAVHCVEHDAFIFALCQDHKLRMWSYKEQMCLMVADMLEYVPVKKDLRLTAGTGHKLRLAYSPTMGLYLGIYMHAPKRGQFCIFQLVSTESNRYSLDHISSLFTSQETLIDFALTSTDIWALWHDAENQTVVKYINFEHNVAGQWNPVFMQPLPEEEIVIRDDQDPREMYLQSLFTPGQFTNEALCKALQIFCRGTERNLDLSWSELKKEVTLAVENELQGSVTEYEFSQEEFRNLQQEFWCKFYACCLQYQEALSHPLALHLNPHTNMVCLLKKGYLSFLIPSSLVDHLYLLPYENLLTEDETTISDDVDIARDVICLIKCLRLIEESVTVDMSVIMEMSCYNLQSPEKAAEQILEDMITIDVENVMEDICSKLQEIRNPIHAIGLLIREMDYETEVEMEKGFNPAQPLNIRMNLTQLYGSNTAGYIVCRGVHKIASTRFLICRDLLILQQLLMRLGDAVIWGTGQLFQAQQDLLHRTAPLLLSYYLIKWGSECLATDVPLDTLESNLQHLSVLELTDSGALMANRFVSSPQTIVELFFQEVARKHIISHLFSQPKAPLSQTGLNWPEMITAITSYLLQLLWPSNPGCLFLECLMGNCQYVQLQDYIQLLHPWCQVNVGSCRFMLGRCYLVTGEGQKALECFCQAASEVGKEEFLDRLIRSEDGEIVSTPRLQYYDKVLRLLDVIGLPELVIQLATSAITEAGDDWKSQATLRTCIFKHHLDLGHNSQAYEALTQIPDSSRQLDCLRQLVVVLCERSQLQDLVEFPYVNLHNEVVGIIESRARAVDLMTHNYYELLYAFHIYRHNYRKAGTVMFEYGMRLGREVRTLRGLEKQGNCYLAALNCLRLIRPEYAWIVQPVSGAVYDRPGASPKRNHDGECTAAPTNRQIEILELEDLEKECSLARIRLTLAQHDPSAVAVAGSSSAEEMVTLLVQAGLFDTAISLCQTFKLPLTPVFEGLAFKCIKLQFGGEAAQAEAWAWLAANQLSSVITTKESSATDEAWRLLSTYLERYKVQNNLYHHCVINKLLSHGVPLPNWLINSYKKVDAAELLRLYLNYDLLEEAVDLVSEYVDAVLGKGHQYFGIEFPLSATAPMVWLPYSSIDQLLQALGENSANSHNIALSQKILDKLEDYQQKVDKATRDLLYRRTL
Sequence of UniProt P35414 (whole entry, looked up): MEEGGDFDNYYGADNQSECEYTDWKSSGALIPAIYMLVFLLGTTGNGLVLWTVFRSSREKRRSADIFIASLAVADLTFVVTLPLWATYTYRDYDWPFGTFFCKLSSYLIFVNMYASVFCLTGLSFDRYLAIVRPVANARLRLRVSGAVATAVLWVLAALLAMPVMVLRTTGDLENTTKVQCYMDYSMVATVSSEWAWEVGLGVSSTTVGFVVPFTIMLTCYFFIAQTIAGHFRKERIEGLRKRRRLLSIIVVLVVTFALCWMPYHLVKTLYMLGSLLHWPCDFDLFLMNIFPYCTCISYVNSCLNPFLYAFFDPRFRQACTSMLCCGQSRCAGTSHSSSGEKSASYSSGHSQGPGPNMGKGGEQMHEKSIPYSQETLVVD

| SMILES | tested on | assay | test system | conditions | scale | measurement | result |
| --- | --- | --- | --- | --- | --- | --- | --- |
| CC/C(=C(\c1ccccc1)c1ccc(OCCN(C)C)cc1)c1ccccc1 | – | – | CD-1 mouse, male, plasma | intraperitoneal, 3 mg/kg | – | AUC(0-t) | 227 ng·h/mL |
| CC(C)C[C@H](NC(=O)[C@H](Cc1ccccc1)NC(=O)[C@H](Cc1ccccc1)NC(=O)Cc1ccc(-c2ccccc2)cc1)C(=O)N[C@@H](CCCCN)C(=O)N[C@@H](CCCNC(=N)N)C(=O)N[C@H](C(=O)N[C@@H](Cc1c[nH]c2ccccc12)C(=O)N[C@@H](CCCCN)C(=O)N[C@@H](CCCNC(=N)N)C(=O)O)C(C)C | – | – | mouse liver microsomes | – | – | hepatic clearance | 84.4 mL/min/kg |
| CN1CCN(c2ccc(Nc3nccc(-c4cccc(Cl)c4)n3)cc2C(F)(F)F)CC1 | – | – | zebrafish embryos | 25 µM, 5 d | – | toxicity | 0% |
| CC(C)[C@@H]1NC(=O)CNC(=O)[C@H](CC(N)=O)NC(=O)[C@H](CCCNC(=N)N)NC(=O)[C@H](Cc2ccc(O)cc2)NC(=O)[C@H](C(C)C)NC(=O)[C@@H](NC(=O)[C@@H](NC(=O)[C@H](CC(N)=O)NC(=O)[C@H](Cc2c[nH]c3ccccc23)NC(=O)[C@H](C)NC(=O)[C@H](Cc2ccccc2)NC(=O)CN)C(C)C)CSSC[C@@H](C(=O)N[C@@H](Cc2c[nH]cn2)C(=O)N[C@@H](CCCNC(=N)N)C(=O)N[C@@H](CCCNC(=N)N)C(=O)N[C@@H](C)C(=O)N[C@@H](CC(N)=O)C(N)=O)NC(=O)[C@H](C(C)C)NC(=O)[C@H](CCCNC(=N)N)NC1=O | – | circular dichroism, item: Random-coil | PBS | 80 µM, pH 7.4 | – | secondary structure content | 34.3% |
| Cn1cncc1-c1c(F)cncc1NC(=O)c1c(N)nn2cc(F)cnc12 | – | – | human patients | oral, 130 mg once daily, 21 days | – | dose-limiting toxicity anaemia | 13% |
| Cn1ncc(-c2nc(N[C@H]3CC[C@H](N)CC3)ncc2Cl)c1CC1CC1 | – | item: pneumonia grade 3 or higher | human patients phase I | dose not given | – | adverse event incidence | 17% |
| COc1cc2c(Oc3ccc4[nH]c(C)cc4c3F)ccnc2cc1OCC1(N)CC1 | – | – | paediatric recurrent refractory sarcoma | 12 mg | – | grade 1 or 2 Diarrhoea | 63.6% |
| CC[C@H](C)[C@H](NC(=O)[C@H](CC(C)C)NC(=O)[C@H](Cc1c[nH]c2ccccc12)NC(=O)[C@H](CCC(N)=O)NC(=O)[C@@H](NC(=O)[C@H](Cc1ccccc1)NC(=O)[C@H](C)NC(=O)[C@H](CCCCNC(=O)COCCOCCNC(=O)COCCOCCNC(=O)CC[C@H](NC(=O)CCCCCCCCCCCCCCCCCCC(=O)O)C(=O)O)NC(=O)[C@H](CCC(N)=O)NC(=O)[C@H](C)NC(=O)[C@@H](NC(=O)[C@H](CCCCN)NC(=O)[C@H](CC(=O)O)NC(=O)[C@H](CC(C)C)NC(=O)C(C)(C)NC(=O)[C@@H](NC(=O)[C@H](CO)NC(=O)[C@H](Cc1ccc(O)cc1)NC(=O)[C@H](CC(=O)O)NC(=O)[C@H](CO)NC(=O)[C@@H](NC(=O)[C@H](Cc1ccccc1)NC(=O)[C@@H](NC(=O)CNC(=O)[C@H](CCC(=O)O)NC(=O)C(C)(C)NC(=O)[C@@H](N)Cc1ccc(O)cc1)[C@@H](C)O)[C@@H](C)O)[C@@H](C)CC)[C@@H](C)CC)C(C)C)C(=O)N[C@@H](C)C(=O)NCC(=O)NCC(=O)N1CCC[C@H]1C(=O)N[C@@H](CO)C(=O)N[C@@H](CO)C(=O)NCC(=O)N[C@@H](C)C(=O)N1CCC[C@H]1C(=O)N1CCC[C@H]1C(=O)N1CCC[C@H]1C(=O)N[C@@H](CO)C(N)=O | – | – | human, plasma | subcutaneous, 10 mg, week 8, geometric mean | – | Vz/F | 6.04 L |
| Cc1ccccc1C(=O)NN=Cc1ccc(O)c(Br)c1 | – | – | normal C3H/HeN mouse, plasma | intravenous, 1.6 mg/kg | – | AUC(0-t) | 193 ng·h/mL |
| Cc1cc(C(=O)NC(C)(C)COc2cccc3c2C(N)=NS(=O)(=O)N3)cc(C)n1 | Salmonella typhimurium | Ames test, initial | TA100 | 500 µg/plate, added: rat liver S9 | reference: solvent control | revertant ratio | 1.1 |
| COc1cc(Nc2ncc(F)c(Nc3ccc4c(n3)NC(=O)C(C)(C)O4)n2)cc(OC)c1OC | Apelin receptor (APLNR, Homo sapiens, UniProt P35414) | – | – | – | – | IC50 | > 10 µM |
| Clc1ccc(Cl)c(-c2cc(Cl)ccc2Cl)c1 | – | – | Sprague Dawley rat, thymus | intraperitoneal, 100 mg/kg | – | relative organ weight | 0.0026 g/g body weight |
| CC[C@H](C)[C@@H]1NC(=O)[C@@H]2CCCN2C(=O)[C@H](CC(C)C)NC(=O)[C@H](CC(C)C)NC(=O)CNC(=O)[C@@H](NC(=O)[C@@H](NC(=O)[C@H](CC(=O)O)NC(=O)CNC(=O)[C@@H](NC(=O)[C@H](C)NC(=O)CNC(=O)[C@H](CCCCN)NC(=O)[C@H](CC(C)C)NC(=O)[C@H](CC(C)C)NC(=O)[C@H](CCCCN)NC(=O)CNC(=O)[C@@H](NC(=O)[C@@H](N)CC(C)C)C(C)C)C(C)C)C(C)C)CSSC[C@@H](C(=O)O)NC1=O | – | RNA-seq, item: Def6 | mouse, traumatic brain injury model, frontal cortex and hippocampus | dose not given | reference: TBI alone | log2 fold change | -1.73 |
| CC(C)CC(=O)OC[C@H]1O[C@@](C#N)(c2ccc3c(N)ncnn23)[C@H](O)[C@@H]1O | – | – | Sprague-Dawley rat, male, urine and faeces | 80 mg/kg, time not given | reference: dose | recovery in urine and faeces | 0.0796% |
| COc1ccnc(C(=O)N[C@H]2COC(=O)[C@H](Cc3ccccc3)[C@@H](OC(=O)C(C)C)[C@H](C)OC2=O)c1OCOC(=O)C(C)C | – | soil adsorption | clay loam soil | pH 7.2, organic carbon 4.4 % | – | KFoc | 3110 mL/g |
| Clc1ccc(-c2ccc(Cl)cc2Cl)cc1 | – | – | PDMS-water partitioning | PCB compilation | reference: maximum over minimum K | literature range factor | 4 |
| C[C@@H]1NC(=O)[C@H](CCCCNC(=O)CO/N=C/C(=O)NCCCC[C@@H]2NC(=O)[C@@H](Cc3ccccc3)NC(=O)[C@H](CC(=O)O)NC(=O)CNC(=O)[C@H](CCCNC(=N)N)NC2=O)NC(=O)CNC(=O)[C@@H]2CCCN2C(=O)[C@H](CCCCNC(=O)CO/N=C/C(=O)NCCCC[C@@H]2NC(=O)[C@@H](Cc3ccccc3)NC(=O)[C@H](CC(=O)O)NC(=O)CNC(=O)[C@H](CCCNC(=N)N)NC2=O)NC(=O)[C@H](CCCCNC(=O)[C@H](CCCCN)NC(=O)[C@H](Cc2ccccc2)NC(=O)CNC(=O)CN2CCCNCCNCCCNCC2)NC(=O)[C@H](CCCCNC(=O)CO/N=C/C(=O)NCCCC[C@@H]2NC(=O)[C@@H](Cc3ccccc3)NC(=O)[C@H](CC(=O)O)NC(=O)CNC(=O)[C@H](CCCNC(=N)N)NC2=O)NC(=O)CNC(=O)[C@@H]2CCCN2C(=O)[C@H](CCCCNC(=O)CO/N=C/C(=O)NCCCC[C@@H]2NC(=O)[C@@H](Cc3ccccc3)NC(=O)[C@H](CC(=O)O)NC(=O)CNC(=O)[C@H](CCCNC(=N)N)NC2=O)NC1=O [copper-64 labelled] | – | – | normal mice, blood | intravenous, 0.74 MBq, 24 h post-injection | – | tissue uptake | 0.13 ± 0.01 %ID/g |
| Clc1cc(Cl)c(-c2cc(Cl)c(Cl)c(Cl)c2Cl)cc1Cl | – | – | fresh water | 12 (unit not given), 20 °C, S30-1 sampler, 30 µm | – | log K(PDMS-water) | 6.67 ± 0.07 |

| SMILES | tested on | assay | test system | conditions | scale | measurement | result |
| --- | --- | --- | --- | --- | --- | --- | --- |
| CN(C(=O)n1cnc(-c2ccc[n+]([O-])c2)c1)C1CCCCC1 | – | – | Wistar rat, medulla oblongata | oral, 10 mg/kg/day, 48 h, repeated 5 days | – | concentration | 6.8 ± 3.4 ng/g |
| C[C@H]1CN(c2n[nH]c3nc(N[C@H]4CC[C@H](NS(=O)(=O)CCC(F)(F)F)CC4)ncc23)CCO1 | Nuclear pore complex protein Nup160 (Homo sapiens, UniProt Q12769) | Kinobeads competition, item: NUP160 | – | 20 µM, unit not given | reference: vehicle | remaining binding | 1.17 |
| Clc1cc(Cl)c(-c2c(Cl)cc(Cl)cc2Cl)c(Cl)c1 | – | – | fresh water | 20 °C, S30-2 sampler, 30 µm | – | log K(PDMS-water) | 6.6 ± 0.05 |
| [O-][S+]1CCc2nc(N3CCC(c4ncc(Cl)cn4)CC3)nc(NC3(CO)CCC3)c21 (centres unmarked) | – | item: Dizziness | healthy male humans | 48 mg single dose | – | adverse event incidence | 0% |
| CO[C@H]1C[C@@H]2CC[C@@H](C)[C@@](O)(O2)C(=O)C(=O)N2CCCC[C@H]2C(=O)O[C@H]([C@H](C)C[C@@H]2CC[C@@H](OC(=O)NCCOCCOCCOCCOCCOCCOCCOCCOCCC(=O)N3CCc4cc(Cn5nc(-c6ccc7oc(N)nc7c6)c6c(N)ncnc65)ccc4C3)[C@H](OC)C2)C[C@@H](O)[C@H](C)/C=C(\C)[C@@H](O)[C@@H](OC)C(=O)[C@H](C)C[C@H](C)/C=C/C=C/C=C/1C | – | – | advanced solid tumour patients | intravenous, dose not given, any grade, all doses | – | incidence of TRAE | 86% |
| CCOc1cc(Oc2ccc(C(F)(F)F)cc2Cl)ccc1[N+](=O)[O-] | – | – | rat, female | 500 mg/kg, 4 days | – | body weight gain | 25% |
| CN1CC[C@@H](c2c(O)cc(O)c3c(=O)cc(-c4ccc(C(F)(F)F)cc4Cl)oc23)[C@@H]1CO | – | item: Neutropenia | B-cell malignancies | oral, 100 mg, intermittent dosing | – | patients with adverse event | 0% |
| CN[C@H]1CC[C@@H](c2ccc(Cl)c(Cl)c2)c2ccccc21 | – | – | CD-1 mouse, male, plasma | intraperitoneal, 3 mg/kg | – | AUC(0-t) | 192 ng·h/mL |
| O=C(Nc1ccccc1)C1CCN(C(=O)Oc2cccnc2)CC1 | – | – | healthy women | oral, 100 mg, 9 days | – | back pain adverse events | 0% |
| Clc1cc(-c2cc(Cl)c(Cl)c(Cl)c2)cc(Cl)c1Cl | – | – | fresh water | 20 °C | – | log K(PDMS-water) | 6.32 ± 0.08 |
| N.N.[Cl][Pt][Cl] | – | – | mice, serum | dose not given | – | BUN | 35.4 mg/dL |
| C[C@@H](NC(=O)N1C(=O)[C@H](Cc2ccnc(N)c2)[C@H]1C(=O)O)C1CCCCC1 | – | – | healthy adult Chinese volunteers | continuous intravenous infusion, 0.3 mg/kg/h, 5-day infusion, CTCAE 5.0 grading | – | incidence of serious AEs | 0% |
| CC(C)C[C@@H]1NC(=O)CNC(=O)[C@H](CC(N)=O)NC(=O)[C@H](CCCNC(=N)N)NC(=O)[C@H]([C@@H](C)O)NC(=O)[C@@H]2CSSC[C@@H]3NC(=O)[C@H]([C@@H](C)O)NC(=O)CNC(=O)CNC(=O)[C@H](C(C)C)NC(=O)[C@@H]4CSSC[C@H](NC(=O)[C@H]([C@@H](C)O)NC(=O)[C@H](CSSC[C@H](NC(=O)[C@H](C(C)C)NC(=O)[C@@H]5CCCN5C1=O)C(=O)NCC(=O)N[C@@H](CCC(=O)O)C(=O)N[C@@H]([C@@H](C)O)C(=O)N4)NC(=O)CNC(=O)[C@@H]1CCCN1C(=O)[C@H]([C@@H](C)O)NC(=O)[C@H](CC(N)=O)NC3=O)C(=O)N[C@@H](CO)C(=O)N[C@@H](Cc1c[nH]c3ccccc13)C(=O)N1CCC[C@H]1C(=O)N[C@@H](CCCCN)C(=O)N2 | – | HPLC | water | 180 µM, 14 days, 37 °C, deamidation stability | – | remaining peptide | 98.1 ± 1% |
| C=CC[N+]1([C@H]2C[C@H]3[C@@H]4CC[C@H]5C[C@H](O)[C@@H](N6CCOCC6)C[C@]5(C)[C@H]4CC[C@]3(C)[C@H]2OC(C)=O)CCCC1 | – | – | Sprague Dawley rat, plasma | intravenous, dose not given, added: sugammadex 5 mg/kg | – | AUC(0-t) | 32.9 ng·h/mL |
| C[C@]1(CO)Cc2ncn(-c3ccc(C#N)c(Cl)c3)c2C(=O)O1 | – | – | Japanese subjects | dose not given, all doses total | – | drug-related Dizziness incidence | 5.6% |
| COc1ccc2nc3cc(Cl)ccc3c(Nc3cc(CN4CCCC4)c(O)c(CN4CCCC4)c3)c2n1 | – | – | mouse, blood | intraperitoneal, 28 mg/kg | – | lymphocytes | 64% |
| O=[N+]([O-])c1cc2c3c(ccc2c2ccccc12)[C@H](O)[C@@H](O)C=C3 | – | item: adenoma mammary tumours | female Sprague-Dawley rats | intramammary, 12.3 µmol per rat, up to 32 weeks | – | tumours per rat | 0.17 ± 0.64 |
